Assay results pooled from the literature.
A part holds a random share of what one study measured.

Sample 1
Target: DNA polymerase theta, ATPase domain (POLQ, Homo sapiens, UniProt O75417)
UniProt O75417, sequence (whole entry, unmodified, looked up): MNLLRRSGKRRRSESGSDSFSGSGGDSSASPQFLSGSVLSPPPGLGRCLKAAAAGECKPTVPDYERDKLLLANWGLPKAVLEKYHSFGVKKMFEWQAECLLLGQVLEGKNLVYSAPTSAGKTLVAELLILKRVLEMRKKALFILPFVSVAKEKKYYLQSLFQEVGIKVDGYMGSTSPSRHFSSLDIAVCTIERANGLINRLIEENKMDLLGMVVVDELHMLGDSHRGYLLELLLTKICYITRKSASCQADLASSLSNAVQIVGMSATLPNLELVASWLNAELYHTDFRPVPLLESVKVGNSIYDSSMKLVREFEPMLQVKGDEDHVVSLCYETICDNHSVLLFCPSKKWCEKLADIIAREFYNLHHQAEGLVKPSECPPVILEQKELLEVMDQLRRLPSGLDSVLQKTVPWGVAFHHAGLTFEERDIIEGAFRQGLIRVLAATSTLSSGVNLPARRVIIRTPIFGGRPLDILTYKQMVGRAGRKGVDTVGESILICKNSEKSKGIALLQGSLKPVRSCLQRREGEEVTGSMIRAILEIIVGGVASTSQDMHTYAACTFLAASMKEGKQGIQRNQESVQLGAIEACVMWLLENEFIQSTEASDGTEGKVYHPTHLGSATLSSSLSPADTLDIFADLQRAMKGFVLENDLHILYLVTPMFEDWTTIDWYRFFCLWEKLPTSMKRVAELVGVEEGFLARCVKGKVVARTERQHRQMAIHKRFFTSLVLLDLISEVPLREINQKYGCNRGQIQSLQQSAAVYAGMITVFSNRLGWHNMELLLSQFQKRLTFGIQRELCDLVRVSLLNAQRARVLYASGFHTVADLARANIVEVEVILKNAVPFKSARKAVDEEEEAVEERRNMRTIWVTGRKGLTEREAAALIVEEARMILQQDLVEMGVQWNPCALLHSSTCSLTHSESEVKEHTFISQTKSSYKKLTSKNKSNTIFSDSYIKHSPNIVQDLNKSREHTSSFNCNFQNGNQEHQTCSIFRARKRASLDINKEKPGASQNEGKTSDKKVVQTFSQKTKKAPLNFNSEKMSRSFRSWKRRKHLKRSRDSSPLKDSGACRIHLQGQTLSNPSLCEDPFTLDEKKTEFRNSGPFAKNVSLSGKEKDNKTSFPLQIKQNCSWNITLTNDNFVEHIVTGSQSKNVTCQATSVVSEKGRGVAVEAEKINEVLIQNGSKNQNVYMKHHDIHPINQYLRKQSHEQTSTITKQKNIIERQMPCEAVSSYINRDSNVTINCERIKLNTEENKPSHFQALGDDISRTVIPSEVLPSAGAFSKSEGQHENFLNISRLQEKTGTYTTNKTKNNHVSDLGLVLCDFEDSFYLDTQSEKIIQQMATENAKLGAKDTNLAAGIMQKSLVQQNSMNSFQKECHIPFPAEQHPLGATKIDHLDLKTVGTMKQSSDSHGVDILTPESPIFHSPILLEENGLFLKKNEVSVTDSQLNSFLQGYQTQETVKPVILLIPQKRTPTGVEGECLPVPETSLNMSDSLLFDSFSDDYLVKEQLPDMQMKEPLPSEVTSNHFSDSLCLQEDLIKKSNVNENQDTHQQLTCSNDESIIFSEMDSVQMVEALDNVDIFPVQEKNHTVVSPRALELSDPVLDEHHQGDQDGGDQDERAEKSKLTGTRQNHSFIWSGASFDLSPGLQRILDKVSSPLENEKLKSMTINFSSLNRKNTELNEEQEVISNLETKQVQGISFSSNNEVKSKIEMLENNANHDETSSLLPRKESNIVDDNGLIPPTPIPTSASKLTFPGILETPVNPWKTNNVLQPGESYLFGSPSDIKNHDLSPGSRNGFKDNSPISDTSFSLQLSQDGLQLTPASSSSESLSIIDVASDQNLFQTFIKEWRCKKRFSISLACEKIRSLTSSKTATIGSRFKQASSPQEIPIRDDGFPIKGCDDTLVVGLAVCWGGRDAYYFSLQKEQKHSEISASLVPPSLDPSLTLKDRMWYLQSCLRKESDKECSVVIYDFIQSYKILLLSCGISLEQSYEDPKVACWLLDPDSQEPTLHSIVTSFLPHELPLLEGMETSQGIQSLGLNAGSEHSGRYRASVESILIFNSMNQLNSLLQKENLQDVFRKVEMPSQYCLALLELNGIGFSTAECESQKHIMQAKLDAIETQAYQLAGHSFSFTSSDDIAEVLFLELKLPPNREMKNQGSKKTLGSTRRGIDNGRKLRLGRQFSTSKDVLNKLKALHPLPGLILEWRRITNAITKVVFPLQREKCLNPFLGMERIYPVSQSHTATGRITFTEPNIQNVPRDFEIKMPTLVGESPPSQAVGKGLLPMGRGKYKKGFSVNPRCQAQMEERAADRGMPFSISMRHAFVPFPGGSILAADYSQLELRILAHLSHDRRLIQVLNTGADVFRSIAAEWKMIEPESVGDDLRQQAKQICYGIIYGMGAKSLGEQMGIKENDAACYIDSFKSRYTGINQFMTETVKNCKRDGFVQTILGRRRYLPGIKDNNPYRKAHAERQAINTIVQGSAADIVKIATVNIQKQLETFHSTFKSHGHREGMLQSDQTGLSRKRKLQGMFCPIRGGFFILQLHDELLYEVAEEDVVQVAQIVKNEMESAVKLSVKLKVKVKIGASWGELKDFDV
Effect on: enzyme activity
Mode: inhibitor
Concentration: 77 µM
With `O=S(=O)(c1cccc2cnccc12)N1CCCNCC1` the remaining activity was 79.2%.
`COc1ccc2c3c1O[C@H]1C[C@@H](O)C=C[C@@]31CCN(C)C2` gave a remaining activity of 102%.
`O=c1ccc2c(OCCCCc3ccccc3)c3ccoc3cc2o1` gave a remaining activity of 100%.
`CCN(CC)CC#CCOC(=O)C(O)(c1ccccc1)C1CCCCC1` (stereo not drawn) gave a remaining activity of 105%.
For `CC(C)(C)NC(=O)[C@@H]1C[C@@H]2CCCC[C@@H]2CN1C[C@@H](O)[C@H](Cc1ccccc1)NC(=O)[C@H](CC(N)=O)NC(=O)c1ccc2ccccc2n1`, the remaining activity was 80%.
For `O=C(O)c1ccccc1O`, the remaining activity was 90.6%.
`CC(C)NCC(O)COc1cccc2[nH]ccc12` (stereo not drawn) gave a remaining activity of 93.1%.

Sample 2
Target: Death-associated protein kinase 1 (DAPK1, Homo sapiens, UniProt P53355)
UniProt P53355, sequence (whole entry, looked up): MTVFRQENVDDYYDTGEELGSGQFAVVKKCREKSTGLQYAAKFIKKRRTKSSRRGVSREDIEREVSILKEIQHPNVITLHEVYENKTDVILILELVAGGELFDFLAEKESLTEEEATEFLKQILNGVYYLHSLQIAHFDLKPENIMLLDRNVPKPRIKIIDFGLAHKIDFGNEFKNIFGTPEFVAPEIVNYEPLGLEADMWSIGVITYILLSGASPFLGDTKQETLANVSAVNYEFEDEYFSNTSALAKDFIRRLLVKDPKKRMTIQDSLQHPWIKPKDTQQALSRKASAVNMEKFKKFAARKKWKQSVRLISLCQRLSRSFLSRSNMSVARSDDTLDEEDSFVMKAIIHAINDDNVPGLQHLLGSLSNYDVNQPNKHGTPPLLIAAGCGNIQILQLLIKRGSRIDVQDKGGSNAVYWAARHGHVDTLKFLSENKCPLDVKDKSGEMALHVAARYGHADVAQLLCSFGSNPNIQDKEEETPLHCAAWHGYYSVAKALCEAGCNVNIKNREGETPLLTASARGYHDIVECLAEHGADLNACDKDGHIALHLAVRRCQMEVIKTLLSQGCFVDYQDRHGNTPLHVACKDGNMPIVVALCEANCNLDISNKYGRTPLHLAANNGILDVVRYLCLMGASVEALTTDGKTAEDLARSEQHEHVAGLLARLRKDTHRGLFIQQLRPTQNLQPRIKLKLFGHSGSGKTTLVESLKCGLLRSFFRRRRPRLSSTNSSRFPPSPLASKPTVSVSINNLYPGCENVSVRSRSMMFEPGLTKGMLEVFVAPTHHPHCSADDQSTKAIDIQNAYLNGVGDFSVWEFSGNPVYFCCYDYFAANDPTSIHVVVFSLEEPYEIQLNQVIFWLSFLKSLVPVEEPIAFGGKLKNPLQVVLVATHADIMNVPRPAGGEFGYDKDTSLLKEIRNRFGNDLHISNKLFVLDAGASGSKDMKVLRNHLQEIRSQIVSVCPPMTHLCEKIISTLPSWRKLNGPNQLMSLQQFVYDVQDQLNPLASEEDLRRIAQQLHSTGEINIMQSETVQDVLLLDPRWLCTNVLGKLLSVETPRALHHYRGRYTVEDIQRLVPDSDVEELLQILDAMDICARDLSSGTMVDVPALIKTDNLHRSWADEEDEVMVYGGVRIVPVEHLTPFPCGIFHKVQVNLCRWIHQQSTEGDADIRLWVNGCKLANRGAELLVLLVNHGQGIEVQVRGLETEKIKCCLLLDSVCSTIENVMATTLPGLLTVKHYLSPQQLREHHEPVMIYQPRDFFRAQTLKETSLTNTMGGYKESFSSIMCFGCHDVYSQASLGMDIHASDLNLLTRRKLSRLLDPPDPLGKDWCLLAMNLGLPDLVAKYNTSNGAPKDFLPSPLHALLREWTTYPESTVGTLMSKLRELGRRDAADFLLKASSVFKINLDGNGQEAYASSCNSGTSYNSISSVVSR
Effect on: enzyme activity
Mode: inhibitor
Concentration: 0.5 µM
Reference: control
With `Cc1nc2cc3nc(-c4cccs4)cnc3cc2n1C` the remaining activity was 99.5%.
With `Cn1nc2c3c(cccc31)C(=O)c1ccccc1-2` the remaining activity was 86.4%.
`COc1cc2ncnc(Nc3cccc(Cl)c3)c2cc1OC` has a remaining activity of 108%.
`O=c1cc(-c2cccc3c2Sc2ccccc2S3)oc(N2CCOCC2)c1` has a remaining activity of 82.7%.
`N#Cc1c(NC(=O)c2cccc3ccccc23)sc2c1CCCC2` gave a remaining activity of 109%.
For `O=C1C(Cl)=C(N2C(=O)CCC2=O)C(=O)c2ccccc21`, the remaining activity was 101%.
For `CCOc1nc(NC(=O)Cc2cc(OC)ccc2OC)cc(N)c1C#N`, the remaining activity was 99%.
For `CN([C@@H](Cc1ccc(OS(=O)(=O)c2cccc3cnccc23)cc1)C(=O)N1CCN(c2ccccc2)CC1)S(=O)(=O)c1cccc2cnccc12`, the remaining activity was 117%.
With `O=C1c2ccccc2-c2n[nH]c3cccc1c23` the remaining activity was 81.5%.
`Ic1cccc(CSc2nnc(-c3ccncc3)o2)c1` has a remaining activity of 90.3%.
`Cc1cc2ncc(-c3ccccc3)nc2cc1C` gave a remaining activity of 88.4%.
`CCN(CC)CCNC(=O)c1c(C)[nH]c(/C=C2\C(=O)Nc3ccc(Cl)cc32)c1C` has a remaining activity of 47.7%.
`O=C(NC(NC(=S)Nc1ccc(F)c([N+](=O)[O-])c1)C(Cl)(Cl)Cl)C(c1ccccc1)c1ccccc1` (stereo not drawn) gave a remaining activity of 75.1%.
`COc1cc2c(cc1OC)-c1[nH]nc(Nc3cccc(F)c3)c1C2` gave a remaining activity of 90.7%.
The remaining activity of `N#C/C(=C\c1ccc(O)c(O)c1)C(=O)NCc1ccccc1` is reported as 99.7%.
The remaining activity of `COc1cc2ncnc(Nc3ccc(O)c(Br)c3)c2cc1OC` is reported as 92%.
The remaining activity of `CN(C)C[C@H]1CCn2c(c(C3=C(c4cn(C)c5ccccc45)C(=O)NC3=O)c3ccccc32)C1` is reported as 94.1%.
For `c1ccc(-c2cnc(Nc3ccc(OCCN4CCCC4)cc3)s2)cc1`, the remaining activity was 95.1%.
`C[C@@H]1CCN(C(=O)CC#N)C[C@@H]1N(C)c1ncnc2[nH]ccc12` gave a remaining activity of 109%.
`Nc1cccc(-c2cc3c(Oc4cccc(O)c4)ncnc3[nH]2)c1` gave a remaining activity of 89.1%.
For `O=C(Nc1cccc(Nc2nccc(Nc3cccc(C(F)(F)F)c3)n2)c1)C1CC1`, the remaining activity was 83.5%.
With `c1ccc(-c2[nH]ncc2-c2ccnc3ccccc23)nc1` the remaining activity was 111%.
`CCN(CC)C(=O)c1ccc(Nc2nc(OCC3CCCCC3)c3[nH]cnc3n2)cc1` gave a remaining activity of 81.5%.
`Cc1cn(-c2cc(NC(=O)c3ccc(C)c(Nc4nccc(-c5cccnc5)n4)c3)cc(C(F)(F)F)c2)cn1` gave a remaining activity of 102%.

Sample 3
Cell line: normal-adjacent organoid sample F
Method: CellTiter-Glo
Concentration: 0.1 µM
Setting: replicate mean
Reference: DMSO
For `CCCOc1ccc([C@H]2[C@H](C(=O)O)[C@@H](c3ccc4c(c3)OCO4)CN2CC(=O)Nc2c(CC)cccc2CC)cc1`, the viability was 125%.
`C[C@@H]1CN(c2cc(-c3n[nH]c4ccc(OC5(C)CC5)cc34)ncn2)C[C@H](C)O1` has a viability of 110%.
The viability of `N#Cc1ccc(Nc2ccc3[nH]c(=O)[nH]c3c2)c(Cl)c1` is reported as 113%.
For `CS(=O)(=O)NCC[C@H](NC(=O)c1cncc2c1cnn2-c1ccc(F)cc1)c1ccnc(S(C)(=O)=O)c1`, the viability was 149%.
`O[C@]1(C(F)(F)F)CCCC[C@H]1Nc1ccc(F)cc1` has a viability of 99.3%.
`Cc1ccc(-c2cnc([C@@]3(O)CC[C@H](C(=O)O)C(C)(C)C3)s2)cc1Nc1cccc(C(F)(F)F)n1` has a viability of 101%.
For `COc1cc(N[C@@H]2CCCC[C@]2(O)C(F)(F)F)ccc1F`, the viability was 102%.
With `CCS(=O)(=O)c1cc2cc(C[C@@](O)(CC(C)(C)c3ccc(F)cc3C(N)=O)C(F)(F)F)[nH]c2cn1` the viability was 107%.
`O=C(NCCCC1CCCCC1)c1ccc(CNC(=O)c2cnn(-c3ccccc3)c2C(F)(F)F)cc1` has a viability of 107%.
With `CC(C)(C)OC(=O)N1CCCC1CNC1CCC(c2cc(F)ccc2F)(S(=O)(=O)c2ccc(Cl)cc2)CC1` (stereo not drawn) the viability was 91.1%.
With `CN1C(=O)[C@@H](N2CCc3c(nn(Cc4ccccc4)c3Br)C2=O)COc2ccccc21` the viability was 156%.

Sample 4
Cell line: HaCaT
Concentration: 100 µM
Time: 36 h
The viability of `Cc1ccnc2c1NC(=O)c1cccnc1N2C1CC1` is reported as 91%.
`Nc1c2c(nc3ccccc13)CCCC2` gave a viability of 26.2%.
The viability of `C[C@@H](O[C@H]1OCCN(Cc2nc(O)n(P(=O)(O)O)n2)[C@H]1c1ccc(F)cc1)c1cc(C(F)(F)F)cc(C(F)(F)F)c1` is reported as 6.58%.
`COC(=O)[C@H]1[C@H]2C[C@@H]3c4[nH]c5cc(OC)ccc5c4CCN3C[C@H]2C[C@@H](OC(=O)c2cc(OC)c(OC)c(OC)c2)[C@@H]1OC` has a viability of 57.1%.
The viability of `Nc1ccc(S(=O)(=O)Nc2cnc3ccccc3n2)cc1` is reported as 59.3%.
For `O=P(O)(O)C(O)(Cn1ccnc1)P(=O)(O)O`, the viability was 25.1%.
`NCCCCCC(=O)O` gave a viability of 97.5%.
`Cc1cc2c(cc1S(N)(=O)=O)S(=O)(=O)CCC2` gave a viability of 69.5%.
For `CC(=O)NO`, the viability was 93.2%.
With `O=C(O)CCCNC(=O)c1cccnc1` the viability was 99.9%.
`COc1cc2nccc(Oc3ccc(NC(=O)NC4CC4)c(Cl)c3)c2cc1C(N)=O` gave a viability of 54.6%.
The viability of `CC(C)=CCC[C@](C)(O[C@@H]1O[C@H](CO[C@@H]2O[C@@H](CO)[C@H](O)[C@H]2O)[C@@H](O)[C@H](O)[C@H]1O)[C@H]1CC[C@]2(C)[C@@H]1[C@H](O)C[C@@H]1[C@@]3(C)CC[C@H](O[C@@H]4O[C@H](CO)[C@@H](O)[C@H](O)[C@H]4O[C@@H]4O[C@H](CO)[C@@H](O)[C@H](O)[C@H]4O)C(C)(C)[C@@H]3CC[C@]12C` is reported as 89.8%.

Repeated from above (sample 4):
`COC(=O)[C@H]1[C@H]2C[C@@H]3c4[nH]c5cc(OC)ccc5c4CCN3C[C@H]2C[C@@H](OC(=O)c2cc(OC)c(OC)c(OC)c2)[C@@H]1OC` has a viability of 57.1%.
The viability of `Nc1ccc(S(=O)(=O)Nc2cnc3ccccc3n2)cc1` is reported as 59.3%.
For `O=P(O)(O)C(O)(Cn1ccnc1)P(=O)(O)O`, the viability was 25.1%.
`NCCCCCC(=O)O` gave a viability of 97.5%.
`Cc1cc2c(cc1S(N)(=O)=O)S(=O)(=O)CCC2` gave a viability of 69.5%.
For `CC(=O)NO`, the viability was 93.2%.
With `O=C(O)CCCNC(=O)c1cccnc1` the viability was 99.9%.
`COc1cc2nccc(Oc3ccc(NC(=O)NC4CC4)c(Cl)c3)c2cc1C(N)=O` gave a viability of 54.6%.
